# Published values pooled from the literature.
# Lines come from different studies, so protocols differ. ± marks the error that the study gave.
SMILES,tested on,test,system,setting,measurement,value
O=C(O)CC[C@H](NC(=O)N[C@@H](CCCCNC(=O)CCCCCCC(=O)NCCCC[C@@H](NC(=O)[C@@H](Cc1ccccc1)NC(=O)[C@@H](Cc1ccc(O)c(I)c1)NC(=O)CCC(C(=O)O)N1CCN(CC(=O)O)CCN(CC(=O)O)CCN(CC(=O)O)CC1)C(=O)O)C(=O)O)C(=O)O (stereo partly shown) [gallium-68 labelled],,,"CB-17 SCID mice, tumour xenograft","dose not given, 1 h post-injection",tumour uptake,4.37 ± 0.64 %ID/g
COc1cc(CNC(=O)C[C@H](C)CCC=C(C)C)ccc1OCc1cn(-c2ccc(Cl)c(Cl)c2)nn1,OVCAR-8 ovarian cancer cells,SRB,,"10 µM, 48 h",growth percent,46.3%
CC(C)C[C@H](NC(=O)C[C@H](O)[C@H](CC(C)C)NC(=O)[C@H](Cc1c[nH]cn1)NC(=O)CNC(=O)[C@@H](NC(=O)[C@H](C)NC(=O)[C@H](Cc1c[nH]c2ccccc12)NC(=O)[C@H](CCC(N)=O)NC(=O)[C@@H](Cc1ccccc1)NC(=O)CCOCCOCCOCCNC(=O)CN1CCN(CC(=O)O)CCN(CC(=O)O)CC1)C(C)C)C(N)=O [gallium-68 labelled],,microPET imaging,"nude mouse PC-3 xenograft, PC-3 tumour","intravenous, 3.7 MBq, 60 min",mean tumour uptake,3.01 ± 0.45 %ID/g
N=C(N)NCCC[C@@H]1NC(=O)[C@H](CCCCNC(=O)CNC(=O)CNC(=O)CNC(=O)CC[C@H](NC(=O)CNC(=O)CNC(=O)CNC(=O)CN2CCN(CC(=O)O)CCN(CC(=O)O)CCN(CC(=O)O)CC2)C(=O)NCC(=O)NCC(=O)NCC(=O)NCCCC[C@@H]2NC(=O)[C@@H](Cc3ccccc3)NC(=O)[C@H](CC(=O)O)NC(=O)CNC(=O)[C@H](CCCNC(=N)N)NC2=O)NC(=O)[C@@H](Cc2ccccc2)NC(=O)[C@H](CC(=O)O)NC(=O)CNC1=O [indium-111 labelled],,,"female athymic nu/nu mice, liver","intravenous, 4 h",tissue uptake,2.23 ± 0.05 %ID/g
N=C(N)NCCC[C@@H]1NC(=O)[C@H](CCCCNC(=S)Nc2ccc(CC3CN(CC(=O)O)CCN(CC(=O)O)CCN(CC(=O)O)CCN3CC(=O)O)cc2)NC(=O)[C@@H](Cc2ccc(O)cc2)NC(=O)[C@H](CC(=O)O)NC(=O)CNC1=O (stereo partly shown) [actinium-225 labelled],,,U-87 MG tumour-bearing mice,24 h,tumour to muscle ratio,3.6
COc1cc(CNC(=O)C[C@H](C)CCC=C(C)C)ccc1OCc1cn(-c2ccccc2)nn1,SF-268 CNS cancer cells,SRB,,"10 µM, 48 h",growth percent,92.3%
CC(C)C[C@H](NC(=O)CN1CCN(CC(=O)O)CCN(CC(=O)O)CC1)C(=O)N[C@@H](CC(C)C)C(=O)N[C@@H](CC(C)C)C(=O)N[C@@H](CC(C)C)C(=O)N[C@@H](CCCNC(=N)N)C(=O)N[C@H](C(=O)N[C@@H](CCCCN)C(=O)N[C@@H](CCCNC(=N)N)C(N)=O)C(C)C [copper-64 labelled],,,"CD1 mouse, male, lungs","intravenous, 15 min",tissue uptake,3.7 ± 0.5 %ID/g
N=C(N)NCCC[C@@H]1NC(=O)[C@H](CCCCNC(=O)CNC(=O)CNC(=O)CNC(=O)CC[C@H](NC(=O)CNC(=O)CNC(=O)CNC(=O)CC[C@H](NC(=O)CN2CCN(CC(=O)O)CCN(CC(=O)O)CCN(CC(=O)O)CC2)C(=O)NCC(=O)NCC(=O)NCC(=O)N[C@@H](CCC(=O)NCC(=O)NCC(=O)NCC(=O)NCCCC[C@@H]2NC(=O)[C@@H](Cc3ccccc3)NC(=O)[C@H](CC(=O)O)NC(=O)CNC(=O)[C@H](CCCNC(=N)N)NC2=O)C(=O)NCC(=O)NCC(=O)NCC(=O)NCCCC[C@@H]2NC(=O)[C@@H](Cc3ccccc3)NC(=O)[C@H](CC(=O)O)NC(=O)CNC(=O)[C@H](CCCNC(=N)N)NC2=O)C(=O)NCC(=O)NCC(=O)NCC(=O)NCCCC[C@@H]2NC(=O)[C@@H](Cc3ccccc3)NC(=O)[C@H](CC(=O)O)NC(=O)CNC(=O)[C@H](CCCNC(=N)N)NC2=O)NC(=O)[C@@H](Cc2ccccc2)NC(=O)[C@H](CC(=O)O)NC(=O)CNC1=O [indium-111 labelled],,,"female athymic nu/nu mice, bone","intravenous, 4 h",tissue uptake,1.99 ± 0.15 %ID/g
CSCC[C@H](NC(=O)[C@H](CC(C)C)NC(=O)[C@H](Cc1c[nH]cn1)NC(=O)CNC(=O)[C@@H](NC(=O)[C@H](C)NC(=O)[C@H](Cc1c[nH]c2ccccc12)NC(=O)[C@H](CCC(N)=O)NC(=O)CCOCCOCCOCCOCCNC(=O)CN1CCN(CC(=O)O)CCN(CC(=O)O)CCN(CC(=O)O)CC1)C(C)C)C(N)=O [indium-111 labelled],,,"Swiss nu/nu mice, PC-3 xenograft","intravenous, 10 pmol, 1 h to 24 h post injection",tumour to kidney ratio change,2.1 fold
CCCC[C@H](NC(=O)COCCOCCNC(=O)CN1CCN(CC(=O)O)CCN(CC(=O)O)CC1)C(=O)N[C@H]1CC(=O)NCCCC[C@@H](C(N)=O)NC(=O)[C@H](Cc2c[nH]c3ccccc23)NC(=O)[C@H](CCCNC(=N)N)NC(=O)[C@@H](Cc2ccccc2)NC(=O)[C@H](Cc2c[nH]cn2)NC1=O [copper-64 labelled],,,"C57 mice, lung","intravenous, 0.37 MBq, 24 h",tissue uptake,0.69 ± 0.17 %ID/g
COC(=O)[C@H](CSSC(C)(C)[C@H](NC(=O)[C@H](CCC(=O)NC[C@H](O)[C@@H](O)[C@H](O)[C@H](O)CO)NC(=O)[C@H](CCC(=O)O)NC(=O)[C@H](CCC(=O)NC[C@H](O)[C@@H](O)[C@H](O)[C@H](O)CO)NC(=O)[C@H](CCC(=O)O)NC(=O)[C@H](CCC(=O)NC[C@H](O)[C@@H](O)[C@H](O)[C@H](O)CO)NC(=O)CC[C@H](NC(=O)c1ccc(NCc2cnc3nc(N)[nH]c(=O)c3n2)cc1)C(=O)O)C(=O)O)NC(=O)CC[C@H](NC(=O)c1ccc(NCc2cnc3nc(N)[nH]c(=N)c3n2)cc1)C(=O)O,,,"Lewis rat, female, plasma","subcutaneous, 500 nmol/kg",terminal half-life,~27.8 min
CCCC[C@H](NC(=O)CCCCCCCNC(=O)CN1CCN(CC(=O)O)CCN(CC(=O)O)CC1)C(=O)N[C@H]1CC(=O)NCCCC[C@@H](C(N)=O)NC(=O)[C@H](Cc2c[nH]c3ccccc23)NC(=O)[C@H](CCCNC(=N)N)NC(=O)[C@@H](Cc2ccccc2)NC(=O)[C@H](Cc2c[nH]cn2)NC1=O [copper-64 labelled],,,"C57 mice, muscle","intravenous, 0.37 MBq, 0.5 h",tissue uptake,0.7 ± 0.18 %ID/g
N=C(N)NCCC[C@@H]1NC(=O)[C@H](CCCCNC(=O)CC[C@H](NC(=O)CC[C@H](NC(=O)CN2CCN(CC(=O)O)CCN(CC(=O)O)CCN(CC(=O)O)CC2)C(=O)N[C@@H](CCC(=O)NCCCC[C@@H]2NC(=O)[C@@H](Cc3ccccc3)NC(=O)[C@H](CC(=O)O)NC(=O)CNC(=O)[C@H](CCCNC(=N)N)NC2=O)C(=O)NCCCC[C@@H]2NC(=O)[C@@H](Cc3ccccc3)NC(=O)[C@H](CC(=O)O)NC(=O)CNC(=O)[C@H](CCCNC(=N)N)NC2=O)C(=O)NCCCC[C@@H]2NC(=O)[C@@H](Cc3ccccc3)NC(=O)[C@H](CC(=O)O)NC(=O)CNC(=O)[C@H](CCCNC(=N)N)NC2=O)NC(=O)[C@@H](Cc2ccccc2)NC(=O)[C@H](CC(=O)O)NC(=O)CNC1=O [indium-111 labelled],,,"female athymic nu/nu mice, eyes","intravenous, 24 h",tissue uptake,0.64 ± 0.1 %ID/g

# Repeated from above:
SMILES,tested on,test,system,setting,measurement,value
CCCC[C@H](NC(=O)CCCCCCCNC(=O)CN1CCN(CC(=O)O)CCN(CC(=O)O)CC1)C(=O)N[C@H]1CC(=O)NCCCC[C@@H](C(N)=O)NC(=O)[C@H](Cc2c[nH]c3ccccc23)NC(=O)[C@H](CCCNC(=N)N)NC(=O)[C@@H](Cc2ccccc2)NC(=O)[C@H](Cc2c[nH]cn2)NC1=O [copper-64 labelled],,,"C57 mice, muscle","intravenous, 0.37 MBq, 0.5 h",tissue uptake,0.7 ± 0.18 %ID/g
N=C(N)NCCC[C@@H]1NC(=O)[C@H](CCCCNC(=O)CC[C@H](NC(=O)CC[C@H](NC(=O)CN2CCN(CC(=O)O)CCN(CC(=O)O)CCN(CC(=O)O)CC2)C(=O)N[C@@H](CCC(=O)NCCCC[C@@H]2NC(=O)[C@@H](Cc3ccccc3)NC(=O)[C@H](CC(=O)O)NC(=O)CNC(=O)[C@H](CCCNC(=N)N)NC2=O)C(=O)NCCCC[C@@H]2NC(=O)[C@@H](Cc3ccccc3)NC(=O)[C@H](CC(=O)O)NC(=O)CNC(=O)[C@H](CCCNC(=N)N)NC2=O)C(=O)NCCCC[C@@H]2NC(=O)[C@@H](Cc3ccccc3)NC(=O)[C@H](CC(=O)O)NC(=O)CNC(=O)[C@H](CCCNC(=N)N)NC2=O)NC(=O)[C@@H](Cc2ccccc2)NC(=O)[C@H](CC(=O)O)NC(=O)CNC1=O [indium-111 labelled],,,"female athymic nu/nu mice, eyes","intravenous, 24 h",tissue uptake,0.64 ± 0.1 %ID/g
